Measurements gathered from unrelated publications.
Parts stem from different laboratories: compare values within a part only.
Chain of UniProt O43283 (whole entry, looked up): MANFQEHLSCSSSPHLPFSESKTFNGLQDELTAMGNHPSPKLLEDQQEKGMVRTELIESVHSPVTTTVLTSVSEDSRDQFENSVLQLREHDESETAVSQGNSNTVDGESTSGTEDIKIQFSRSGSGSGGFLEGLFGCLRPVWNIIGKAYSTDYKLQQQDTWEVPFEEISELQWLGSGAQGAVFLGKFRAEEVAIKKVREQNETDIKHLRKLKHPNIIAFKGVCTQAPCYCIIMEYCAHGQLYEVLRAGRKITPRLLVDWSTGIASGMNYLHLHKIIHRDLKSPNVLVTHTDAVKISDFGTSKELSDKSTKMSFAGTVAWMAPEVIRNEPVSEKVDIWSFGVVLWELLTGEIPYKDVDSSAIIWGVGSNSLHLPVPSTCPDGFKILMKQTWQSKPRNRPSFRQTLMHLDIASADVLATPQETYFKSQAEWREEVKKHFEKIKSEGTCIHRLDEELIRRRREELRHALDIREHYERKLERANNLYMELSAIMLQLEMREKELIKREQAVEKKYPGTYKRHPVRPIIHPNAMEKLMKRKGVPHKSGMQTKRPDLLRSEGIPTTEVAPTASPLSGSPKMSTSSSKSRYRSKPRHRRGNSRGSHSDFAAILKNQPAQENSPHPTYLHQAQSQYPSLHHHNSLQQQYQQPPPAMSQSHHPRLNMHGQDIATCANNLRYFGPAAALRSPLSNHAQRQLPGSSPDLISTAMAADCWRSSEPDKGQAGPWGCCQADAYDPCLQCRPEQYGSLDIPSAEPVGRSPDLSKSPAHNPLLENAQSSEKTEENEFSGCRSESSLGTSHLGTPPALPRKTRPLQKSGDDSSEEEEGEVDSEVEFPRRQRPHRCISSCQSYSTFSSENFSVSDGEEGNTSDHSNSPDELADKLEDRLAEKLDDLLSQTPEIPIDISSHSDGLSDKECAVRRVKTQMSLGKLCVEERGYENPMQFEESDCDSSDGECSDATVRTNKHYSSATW
Chain of UniProt Q9HC98 (whole entry, looked up): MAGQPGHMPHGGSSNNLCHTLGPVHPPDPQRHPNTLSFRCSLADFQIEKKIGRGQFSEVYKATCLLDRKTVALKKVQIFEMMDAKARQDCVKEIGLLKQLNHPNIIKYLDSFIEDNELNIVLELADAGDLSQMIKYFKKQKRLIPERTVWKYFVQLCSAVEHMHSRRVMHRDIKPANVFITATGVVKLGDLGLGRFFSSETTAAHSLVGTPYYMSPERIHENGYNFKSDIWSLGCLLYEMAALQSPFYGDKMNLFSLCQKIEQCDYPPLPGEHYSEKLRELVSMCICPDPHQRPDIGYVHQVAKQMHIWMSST
Chain of UniProt Q15349 (whole entry, looked up): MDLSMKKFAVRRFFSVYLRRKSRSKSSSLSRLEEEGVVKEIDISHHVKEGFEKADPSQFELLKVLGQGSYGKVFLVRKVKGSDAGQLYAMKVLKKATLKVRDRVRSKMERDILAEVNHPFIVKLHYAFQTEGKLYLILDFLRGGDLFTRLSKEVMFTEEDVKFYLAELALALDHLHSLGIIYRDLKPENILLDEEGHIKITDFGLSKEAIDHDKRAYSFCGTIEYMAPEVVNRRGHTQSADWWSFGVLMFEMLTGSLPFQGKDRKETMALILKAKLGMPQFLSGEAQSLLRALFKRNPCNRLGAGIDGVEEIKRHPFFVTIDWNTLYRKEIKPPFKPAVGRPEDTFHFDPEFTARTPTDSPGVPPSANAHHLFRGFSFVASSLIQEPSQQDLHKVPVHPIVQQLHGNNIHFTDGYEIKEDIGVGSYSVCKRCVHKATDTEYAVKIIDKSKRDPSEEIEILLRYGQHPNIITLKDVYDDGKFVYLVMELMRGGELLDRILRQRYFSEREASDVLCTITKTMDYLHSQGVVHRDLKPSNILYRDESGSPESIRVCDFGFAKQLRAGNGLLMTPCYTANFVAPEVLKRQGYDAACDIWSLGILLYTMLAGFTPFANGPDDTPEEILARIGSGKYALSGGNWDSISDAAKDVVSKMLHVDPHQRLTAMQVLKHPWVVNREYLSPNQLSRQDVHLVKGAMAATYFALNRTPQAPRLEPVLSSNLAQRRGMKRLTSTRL
Chain of UniProt P42684 (whole entry, looked up): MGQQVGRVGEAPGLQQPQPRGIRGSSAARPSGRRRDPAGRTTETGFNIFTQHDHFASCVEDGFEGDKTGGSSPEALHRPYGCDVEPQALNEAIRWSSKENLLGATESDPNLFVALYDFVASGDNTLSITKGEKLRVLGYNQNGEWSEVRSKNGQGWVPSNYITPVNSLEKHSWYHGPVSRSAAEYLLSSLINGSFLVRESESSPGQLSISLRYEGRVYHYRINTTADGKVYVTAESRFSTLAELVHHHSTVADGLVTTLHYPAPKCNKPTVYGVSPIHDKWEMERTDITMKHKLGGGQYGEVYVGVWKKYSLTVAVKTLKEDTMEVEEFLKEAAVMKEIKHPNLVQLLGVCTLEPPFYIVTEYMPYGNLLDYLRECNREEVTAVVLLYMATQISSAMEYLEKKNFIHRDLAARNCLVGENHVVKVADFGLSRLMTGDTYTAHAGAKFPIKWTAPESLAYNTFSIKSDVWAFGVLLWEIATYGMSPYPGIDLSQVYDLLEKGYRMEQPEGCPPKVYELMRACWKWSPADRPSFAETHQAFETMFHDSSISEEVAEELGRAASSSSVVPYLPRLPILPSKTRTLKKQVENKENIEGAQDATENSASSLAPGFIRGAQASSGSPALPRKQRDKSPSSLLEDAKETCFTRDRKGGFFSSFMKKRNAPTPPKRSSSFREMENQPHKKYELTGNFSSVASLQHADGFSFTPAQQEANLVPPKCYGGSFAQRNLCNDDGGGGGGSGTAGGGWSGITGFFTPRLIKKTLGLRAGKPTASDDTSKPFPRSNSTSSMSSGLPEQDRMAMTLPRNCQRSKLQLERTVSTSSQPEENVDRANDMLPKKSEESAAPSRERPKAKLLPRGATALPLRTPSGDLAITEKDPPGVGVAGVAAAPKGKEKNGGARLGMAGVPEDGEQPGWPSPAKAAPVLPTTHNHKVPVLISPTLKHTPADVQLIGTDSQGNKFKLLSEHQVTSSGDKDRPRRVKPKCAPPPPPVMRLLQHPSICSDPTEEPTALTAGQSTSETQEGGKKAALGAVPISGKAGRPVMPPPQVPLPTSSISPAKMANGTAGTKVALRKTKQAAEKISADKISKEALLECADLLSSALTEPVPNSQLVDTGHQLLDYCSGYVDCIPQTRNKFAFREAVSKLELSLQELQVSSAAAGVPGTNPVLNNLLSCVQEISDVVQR
Chain of UniProt P49841 (whole entry, looked up): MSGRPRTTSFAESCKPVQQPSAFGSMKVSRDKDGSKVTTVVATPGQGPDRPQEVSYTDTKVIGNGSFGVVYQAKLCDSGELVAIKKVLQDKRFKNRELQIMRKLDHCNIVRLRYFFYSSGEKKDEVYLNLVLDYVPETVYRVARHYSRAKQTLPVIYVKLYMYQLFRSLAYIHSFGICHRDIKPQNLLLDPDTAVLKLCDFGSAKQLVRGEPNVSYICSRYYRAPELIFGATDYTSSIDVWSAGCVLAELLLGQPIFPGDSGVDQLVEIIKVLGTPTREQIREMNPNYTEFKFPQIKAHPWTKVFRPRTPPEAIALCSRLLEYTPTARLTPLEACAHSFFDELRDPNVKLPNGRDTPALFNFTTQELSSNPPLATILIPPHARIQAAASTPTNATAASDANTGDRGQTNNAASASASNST
Chain of UniProt Q12866 (whole entry, looked up): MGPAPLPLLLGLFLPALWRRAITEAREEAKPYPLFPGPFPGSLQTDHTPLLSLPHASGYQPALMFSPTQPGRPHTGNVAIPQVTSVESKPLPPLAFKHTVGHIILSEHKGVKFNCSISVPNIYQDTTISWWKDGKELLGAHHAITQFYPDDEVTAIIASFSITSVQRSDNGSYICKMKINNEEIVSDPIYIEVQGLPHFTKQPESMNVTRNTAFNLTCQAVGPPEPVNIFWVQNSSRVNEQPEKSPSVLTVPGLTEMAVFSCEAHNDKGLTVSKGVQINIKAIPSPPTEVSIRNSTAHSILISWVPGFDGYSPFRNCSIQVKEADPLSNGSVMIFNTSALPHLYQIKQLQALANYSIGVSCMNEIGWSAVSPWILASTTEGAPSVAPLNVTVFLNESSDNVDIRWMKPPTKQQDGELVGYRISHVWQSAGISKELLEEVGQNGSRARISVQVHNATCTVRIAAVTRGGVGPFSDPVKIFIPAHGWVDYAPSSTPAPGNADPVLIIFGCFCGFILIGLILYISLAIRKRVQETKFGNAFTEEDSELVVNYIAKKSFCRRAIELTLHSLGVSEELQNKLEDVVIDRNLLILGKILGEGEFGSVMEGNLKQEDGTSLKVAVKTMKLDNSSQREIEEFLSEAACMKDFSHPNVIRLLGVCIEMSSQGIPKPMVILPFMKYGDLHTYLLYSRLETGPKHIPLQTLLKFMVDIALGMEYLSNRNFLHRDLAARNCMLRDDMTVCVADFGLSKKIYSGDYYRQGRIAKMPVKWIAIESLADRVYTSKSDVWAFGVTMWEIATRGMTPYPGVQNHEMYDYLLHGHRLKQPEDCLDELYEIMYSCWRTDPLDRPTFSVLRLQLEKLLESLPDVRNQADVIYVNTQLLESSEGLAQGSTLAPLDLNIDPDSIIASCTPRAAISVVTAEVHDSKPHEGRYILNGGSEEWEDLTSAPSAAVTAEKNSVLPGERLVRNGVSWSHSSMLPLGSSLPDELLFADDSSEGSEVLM
Chain of UniProt Q9Y6M4 (whole entry, looked up): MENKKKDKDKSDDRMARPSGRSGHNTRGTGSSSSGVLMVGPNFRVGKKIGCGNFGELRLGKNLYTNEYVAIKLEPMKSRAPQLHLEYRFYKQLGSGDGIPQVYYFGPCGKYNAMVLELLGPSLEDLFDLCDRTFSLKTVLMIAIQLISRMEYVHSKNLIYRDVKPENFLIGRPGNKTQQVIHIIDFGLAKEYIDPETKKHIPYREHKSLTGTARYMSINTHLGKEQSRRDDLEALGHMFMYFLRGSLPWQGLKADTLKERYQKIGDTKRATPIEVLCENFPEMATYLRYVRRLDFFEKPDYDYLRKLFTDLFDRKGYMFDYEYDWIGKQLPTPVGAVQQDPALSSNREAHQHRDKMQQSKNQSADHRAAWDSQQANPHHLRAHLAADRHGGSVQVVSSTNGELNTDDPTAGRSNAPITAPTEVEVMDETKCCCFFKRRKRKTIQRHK

Sample 1 — effect on: enzyme activity; mode: inhibitor; tested at: 0.5 µM; baseline: control
SMILES: CCN(CC)C(=O)c1ccc(Nc2nc(OCC3CCCCC3)c3[nH]cnc3n2)cc1
ABL2 (Homo sapiens, UniProt P42684) — remaining activity: 67.8%.
MERTK (Homo sapiens, UniProt Q12866) — remaining activity: 71.6%.
The remaining activity was 6.39% (JAK3 (Homo sapiens, UniProt P52333)).
For GRK7 (Homo sapiens, UniProt Q8WTQ7): remaining activity read 103%.
EPHA3 (Homo sapiens, UniProt P29320) — remaining activity: 99.9%.
For CSNK1G3 (Homo sapiens, UniProt Q9Y6M4): remaining activity read 61.7%.
It gave 85% for remaining activity (GSK3B (Homo sapiens, UniProt P49841)).
The remaining activity was 84.9% (ULK2 (Homo sapiens, UniProt Q8IYT8)).
It gave 132% for remaining activity (MAP3K14 (Homo sapiens, UniProt Q99558)).
It gave 101% for remaining activity (ACVR1B (Homo sapiens, UniProt P36896)).
The remaining activity was 101% (NEK6 (Homo sapiens, UniProt Q9HC98)).

Sample 2 — effect on: cell-free assay; technique: competition with immobilised ligand; tested at: 0.1 µM
SMILES: C[C@H](c1ccnc(Nc2nc3ccc(-c4cc(N(C)C)ncn4)cc3[nH]2)c1)N1CCN(C(=O)CC(F)(F)F)CC1
For PIK3CA (Homo sapiens, UniProt P42336, Q546K): remaining binding read 45%.
Ribosomal protein S6 kinase alpha-2, N-terminal kinase domain (RPS6KA2, Homo sapiens, UniProt Q15349) — remaining binding: 98%.
For NTRK1 (Homo sapiens, UniProt P04629): remaining binding read 79%.
The remaining binding was 100% (BMP2K (Homo sapiens, UniProt Q9NSY1)).
For MAP3K13 (Homo sapiens, UniProt O43283): remaining binding read 100%.

Sample 3 — technique: RNA Bind-n-Seq; form: RNA; matrix: in vitro; tested at: not given; baseline: input RNA pool; direction: higher = stronger binding
Target: RING finger protein unkempt homolog, zinc fingers 1-6, GST-SBP tag (UNK, Homo sapiens, UniProt Q9C0B0, residues 30-357)
Setting: RNA with constant flanks, human and mouse sites, ends assumed
Constant ends, left off below: GGGAGUUCUACAGUCCGACGAUC … CAACAGAGGAUUGAGCAUCA
Construct (chain): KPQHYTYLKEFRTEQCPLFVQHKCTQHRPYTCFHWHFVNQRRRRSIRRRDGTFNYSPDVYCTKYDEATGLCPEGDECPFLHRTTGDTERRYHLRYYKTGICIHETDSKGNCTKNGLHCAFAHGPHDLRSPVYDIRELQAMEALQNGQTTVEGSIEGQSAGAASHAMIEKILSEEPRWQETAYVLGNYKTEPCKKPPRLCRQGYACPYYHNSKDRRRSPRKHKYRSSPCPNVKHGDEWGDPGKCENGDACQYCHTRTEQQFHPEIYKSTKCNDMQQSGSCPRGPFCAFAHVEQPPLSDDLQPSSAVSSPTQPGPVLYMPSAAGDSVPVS
For `AAAUCCCCCUGCCUAUAUUAUAAUGGAUCAUGCGAUAUCAGGAUGGGGAAUGUAUGACAUGGUUUAAAAAGAACUCAUUAUAAAAAAAAAAAAACAAAAAAAAUCAAAAAUUAAAAAAAA`, the bound/input enrichment was 0.431 ratio.
For `CAAAGGUUUCUUUGUCAGCCCCCAUGACAACAAAUGGGUUGCCUGAGAGCACAGACAGCAAAGAGGCAAAUUUGCAGCAAAAUGAGGAGAAAAAUCACAGUGACUCUUCGACCUCUGAAU`, the bound/input enrichment was 0.18 ratio.
`GUGCAGCUGACCGUGCAAUACCGAAUGAACAGGAAGAUUAUGUCCCUGAGCAACAAGCUCACAUACGCAGGGAAACUGGAGUGUGGGUCAGACCGAGUGGCCAACGCAGUGCUAGCCCUG` gave a bound/input enrichment of 0.0682 ratio.
The bound/input enrichment of `AGCAUGAAAUUGUUUGACAGCAUAUGUAACAACAAGUGGUUUACAGAUACAUCCAUUAUACUUUUUCUAAACAAGAAGGAUCUCUUUGAAGAAAAAAUCAAAAAGAGCCCUCUCACUAUA` is reported as 0.213 ratio.
With `UGAAUUAAUUAUUAAUAUUUAAAAUACUUCAUUCCUUAACUCUCCCUCAUUUGCUUUGCCCACAGCCUAUUCAGUUCCUUUGUUUGGCAGGAUUCUGCAAAAUGUGUCUCACCCACUACU` the bound/input enrichment was 2.13 ratio.
`UUUUCCUUCAACCCCAAGCUGGAUAAGGAAGAACGGGAGCAGGGCUGGUUGCUGGUUGACCUUAGUGAAGAAUACAAGCGAAUGGGCCUCCCUGAUAAUUAUUGGCAGCUCAGCGAUGUG` gave a bound/input enrichment of 0.169 ratio.
The bound/input enrichment of `UUGCUAGGAAAAAUUACAGCUUUGCAAUAUAACAACUGUUUUUGGAUAUUUCUGAAUGUACUAGAACAAAUAAUCAGUCUGUUUUUAAUGAAUCUAUUUGUAUUUUCCCAAUCAUUCCCU` is reported as 0.372 ratio.
The bound/input enrichment of `GACAUCCAGGCGUGUGUGGACCAUGUGAACCUGGUGGUCCAUGAGGAGCAUGAGCGGAUUUUGGCCAUCGGCUUGAUUAAUGAAGCCCUGGAUGAAGGGGACGCUCAGAAGACUCUGCAG` is reported as 0.16 ratio.

Mixed results — technique: two-hybrid; baseline: out of 4 tests; direction: higher = firmer interaction
T1: itself; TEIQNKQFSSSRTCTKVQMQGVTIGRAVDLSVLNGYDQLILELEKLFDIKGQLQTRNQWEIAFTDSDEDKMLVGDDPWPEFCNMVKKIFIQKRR
T2: itself; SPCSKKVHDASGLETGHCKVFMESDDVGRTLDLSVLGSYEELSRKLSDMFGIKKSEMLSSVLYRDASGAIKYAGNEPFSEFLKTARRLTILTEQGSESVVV
T3: itself; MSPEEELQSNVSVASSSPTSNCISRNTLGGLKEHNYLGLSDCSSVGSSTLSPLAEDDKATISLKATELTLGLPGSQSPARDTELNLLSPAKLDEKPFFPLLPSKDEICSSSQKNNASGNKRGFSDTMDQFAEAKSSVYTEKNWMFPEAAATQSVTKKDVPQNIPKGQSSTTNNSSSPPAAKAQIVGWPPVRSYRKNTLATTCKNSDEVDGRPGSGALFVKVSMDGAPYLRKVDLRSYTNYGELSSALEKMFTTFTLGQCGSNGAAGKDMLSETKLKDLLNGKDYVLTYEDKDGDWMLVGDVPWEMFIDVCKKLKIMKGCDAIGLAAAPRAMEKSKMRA
T4: itself; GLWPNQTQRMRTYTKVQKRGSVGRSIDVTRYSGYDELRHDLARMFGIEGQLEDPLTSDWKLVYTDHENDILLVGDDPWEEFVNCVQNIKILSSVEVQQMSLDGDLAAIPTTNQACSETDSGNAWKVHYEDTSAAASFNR
B1: ARF12 500-593 (Arabidopsis thaliana, UniProt Q9XID4); chain TEIQNKQFSSSRTCTKVQMQGVTIGRAVDLSVLNGYDQLILELEKLFDIKGQLQTRNQWEIAFTDSDEDKMLVGDDPWPEFCNMVKKIFIQKRR
B2: ARF16 570-670 (Arabidopsis thaliana, UniProt Q93YR9); chain SPCSKKVHDASGLETGHCKVFMESDDVGRTLDLSVLGSYEELSRKLSDMFGIKKSEMLSSVLYRDASGAIKYAGNEPFSEFLKTARRLTILTEQGSESVVV
B3: ARF19 948-1086 (Arabidopsis thaliana, UniProt Q8RYC8); chain GLWPNQTQRMRTYTKVQKRGSVGRSIDVTRYSGYDELRHDLARMFGIEGQLEDPLTSDWKLVYTDHENDILLVGDDPWEEFVNCVQNIKILSSVEVQQMSLDGDLAAIPTTNQACSETDSGNAWKVHYEDTSAAASFNR
With `B1 (ARF12 500-593)` the positive tests was 0 (T1, itself).
`B2 (ARF16 570-670)` has a positive tests of 0 (T2, itself).
`IAA9 (Arabidopsis thaliana, UniProt Q38827)` gave a positive tests of 2 (T3, itself).
With `B3 (ARF19 948-1086)` the positive tests was 0 (T4, itself).

Repeated from above (mixed results):
With `B1 (ARF12 500-593)` the positive tests was 0 (T1, itself).
`IAA9 (Arabidopsis thaliana, UniProt Q38827)` gave a positive tests of 2 (T3, itself).
